Published values of several laboratories.
Every numbered part comes from another study and shows a few of its results, in no order.

Sample 1
Target: RNA binding protein fox-1 homolog 2, RRM domain, GST-SBP tag (RBFOX2, Homo sapiens, UniProt O43251-10, residues 100-194)
Technique: RNA Bind-n-Seq
Molecule type: RNA
Matrix: in vitro
Concentration: 365 nM
Notes: natural RNA segment, single round, ends assumed
Reference: no-protein control
Direction: higher = stronger binding
Shared flanks, not repeated: GGGAGUUCUACAGUCCGACGAUC … UGGAAUUCUCGGGUGCCAA
Construct (chain): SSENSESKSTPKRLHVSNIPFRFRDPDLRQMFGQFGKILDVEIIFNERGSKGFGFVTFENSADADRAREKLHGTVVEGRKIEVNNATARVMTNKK
Oligonucleotide	RBNS enrichment (R)
GGAAAUUGUAACAGUUAAUUACUUUGAAUGUUGCUAAAAGGACAUUUUGUGUAGGGUCAAGUUAUUUUUAUAUGAGUUAAUGUGAAAUUGUAAAUGGAAAUUUUUCCUUA	1.62
UUUAUACCAGACCAUUUUUACUAUGGAAUUUCAAGAGUUAAGGAUUGUCUUGGGAAACGUAGUCUAGAAAAAGCCACGUAGAGAAUAACGUGAUGUUCUAGAGUUGUAUG	0.434
CAAUAGCACAGAACGUCUUAAUGCCAGAGGUCACUUCAGCAUCUUCCUGCUUUGAAAACUCACGCUGGCUGCUUCACUGCCCUGAGAUUCAGUGAGACACGCAGUUUGUG	0.478
CUAGUCCUGAAUUCCUAACUCUCCUGAGUGCUGAGAUUGUCAAGCACUGCAUUAAACCUGGCUGGUCUCUUGUCUUGACUUCCUAUAUCUUUGGCUCCUUCUGUCUCAGA	0.727
UCAGAGGAACUUUUCACUUGAAACUGUUGAUCUACUUGUCCAAAAGACCAGCUGCUGCGACACUAAUGCUAAGCCUAUGGGGAAGCACUGUUGACCUGCUCAGGUGCACA	0.21
CAGGAACCCUGAUGAGCCCUCACGUGCCUGUCCUUGACCAAGGUGACUUUUAUGCUGUGGCAACUGUGACAGGCUAUUUUUUAGCAAAGAGUUAGACGUUUGUUAUCAUG	0.462
UAAUCAAAGCUAUGCAUUUCAUAUAGCUUUUUCAUUUAAAACAAGACAAAGAAACAAAUUCCUAUGACCAAAUUGCUUGCCUACAGUUCCCUGCAGUAAUUGUAUGAUCU	4.28
ACUGCAGCCAGUCCGUUUCCUUUCUUUAGCCAGCCAUCCUGGUACUGUAGUUUAGGGGUUGAUGGUGGUUGAAAUUGAUUUCUGGCUGGUUACUAAGGUGCCUGCUAGCC	0.601
AUGCUUAAAUCCAAGUUGUUUCUCCAGCUGUCACCUCCCCCAGGAGAUCAGGAUUCCACUGACGUCCUGGGCAGCCAGUGAAUUUAAUUUUCCAUGAGAAACAACAGAGU	0.525
GGUGGCUGUGAUUAAAUGUCCCAAGCAAGGAUAGGGAAGGGGAAUGGUUGAGCCUCUGGAGAUCAUUGUAACCAAUCCUGCCAGACCUGUUUGGGGCAGUGGGGAGCAAA	2.5
GAAGGAAAAAGAAAAAAGGGGCAAGGAGCCCCGCGGCGGCCUGGGCAGCGCCUGUGCAGACCUCCCUGCAGGCCGCACUGCCAACUGCUGCAUUUGUUGUGUUUUUUAGG	3.79
AGUGUCUGGCUUUAACAUGUGAUUCCACAAGAGUAGAAGCAAGAAAGGUAUAUACUUUUAGGAGCCUAAAAAACAUUUCCAAACUAGCCCAAGCUAUCUCAACUACAGGA	0.356

Sample 2
Target: Fragile X messenger ribonucleoprotein 1, C-terminal low-complexity region (Fmr1, Mus musculus, UniProt P35922)
Technique: RNA Bind-n-Seq
Molecule type: RNA
Matrix: in vitro
Concentration: 200 nM
Notes: whole 134-nt RNA, ends assumed
Added: 150 mM LiCl
Reference: input library
Direction: higher = stronger binding
Library: 7-deaza-guanosine replaces G
Shared flanks, not repeated: GGGAGUUCUACAGUCCGACGAUC … UGGAAUUCUCGGGUGUCAAGG
Oligonucleotide	log2 enrichment
UUAGGCACUUGUUGGGCUCAUCACCGUUGUGUGGAGUGGUCACUAGGAGUAUGCCAGAUGGAAGAACCAUUGUUAGUGAACGUGGACAAA	-0.599
CAAGUCCUGUGCUACACAUCGUAUGUACCGAAUCGGGAAAAAGGGUGGGUUUGGGAAAGUAUUAUGUUACGCCGUUCGGAUCUGCACUUC	-1.62
AGUCCUGUGCUACACAUCGUAUGUACCGAAUCGGGUUUGGGUUUUUGGGUUUUUGGGAAAGUAUUAUGUUACGCCGUUCGGAUCUGCACU	-1.66
CCUCAAGUCCUGUGCUACACAUCGUAUGUACCGAAUCGGGAGGGGAGGAGGGGAAAGUAUUAUGUUACGCCGUUCGGAUCUGCACUUCCA	-0.923
UCCUGUGCUACACAUCGUAUGUACCGAAUCGGGGUUUUUGGGGAAAAAGGGGUUUGGGGAAAGUAUUAUGUUACGCCGUUCGGAUCUGCA	-1.48
UCCUGUGCUACACAUCGUAUGUACCGAAUCGGGGAAAAAGGGGAAAAAGGGGAAAGGGGAAAGUAUUAUGUUACGCCGUUCGGAUCUGCA	-0.266
GCAGGACGUAAAAACAAAUGGAAAUGCUUCGGAUAGUGGCAGGGGUGGGGGUUGCUAAGGAAAGGGUGGGAUGGGAGUGGGUAAAGAGUU	1.84
UGGCCCUGGUGGCAUGCGGGGAGGAAGAGGUGGCCUCAUGGAUCGAGGUGGUCCCGGUGGAAUGUUCAGAGGUGGCCGUGGUGGAGACAG	-0.358
CAACUUUAGAGGAGGAUCUGAUGGAUAUGGCAGUGGACGUGGAUUUGGGGAUGGCUAUAAUGGGUAUGGAGGAGGACCUGGAGGUGGCAA	0.424
UCCUGUGCUACACAUCGUAUGUACCGAAUCGGUUUUUUUGGUUUUUUUGGGUUUUUUUGGAAAGUAUUAUGUUACGCCGUUCGGAUCUGC	-0.699
UGGAGCCCAACCUGUGCCGCUCAGUCCUCAUUGCCAACACGGUCCGGCAGAUCCAAGAGGAGAUGACGCAGGAUGGGACGUGGCGCACAG	-2.43

Sample 3
Target: Sal-like protein 4, full length isoform B (SALL4, Homo sapiens, UniProt Q9UJQ4-2, residues 1-616)
Technique: universal PBM
Molecule type: double-stranded DNA, one strand shown
Matrix: in vitro
Concentration: not given
Notes: 8-mer, flanks averaged, mean of replicates
Direction: higher = stronger binding
Construct (chain): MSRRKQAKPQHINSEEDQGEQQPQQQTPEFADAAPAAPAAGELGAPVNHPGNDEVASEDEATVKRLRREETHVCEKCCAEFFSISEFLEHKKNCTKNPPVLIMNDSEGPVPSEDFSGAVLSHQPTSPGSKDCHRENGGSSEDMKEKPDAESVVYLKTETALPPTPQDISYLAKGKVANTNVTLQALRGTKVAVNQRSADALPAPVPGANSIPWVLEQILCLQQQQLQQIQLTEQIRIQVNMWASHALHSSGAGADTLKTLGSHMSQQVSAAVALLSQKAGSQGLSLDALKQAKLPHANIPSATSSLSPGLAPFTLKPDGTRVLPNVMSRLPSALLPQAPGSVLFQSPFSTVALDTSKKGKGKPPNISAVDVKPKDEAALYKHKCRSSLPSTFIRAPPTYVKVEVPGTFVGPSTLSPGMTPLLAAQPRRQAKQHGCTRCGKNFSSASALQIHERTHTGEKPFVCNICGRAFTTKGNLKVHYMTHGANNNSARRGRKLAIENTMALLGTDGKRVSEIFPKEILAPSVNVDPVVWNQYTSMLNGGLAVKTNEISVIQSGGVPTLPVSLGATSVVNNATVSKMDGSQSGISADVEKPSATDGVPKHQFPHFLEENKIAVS
Oligonucleotide	E-score
AATTACAT	0.285
ACCGGGCG	-0.353
CAGCATCA	-0.0184
GGGCCGAA	-0.361
GTGGTTCA	0.0718
ACCCTAGT	-0.109
ACCAAGCT	0.0282
TCGCCCCA	-0.24
ATCATTGG	0.163
GTACCGAC	-0.176
GAGCCCTA	-0.12
AAAGCTCA	0.00687
CACTAGAG	0.022
CACGAACG	-0.0432
CCTGGAAG	-0.185
GTCTAGAA	0.25
AGGTATGG	-0.124
AGATGGGC	-0.202
CGGATAAG	-0.102
AGTATCAT	0.237
ATCTGCAC	0.0538
ACGGTCTC	-0.0386
CGGGTATA	0.0901
CATAAATG	0.337

Sample 4
Target: Histone acetyltransferase KAT6A, both winged helices, GST fusion (KAT6A, Homo sapiens, UniProt Q92794, residues 1-181)
Technique: protein binding microarray
Molecule type: double-stranded DNA, one strand shown
Matrix: in vitro
Concentration: not given
Notes: 8-mer, flanks averaged, mean of 2 arrays, mostly near background
Reference: not given
Direction: higher = stronger binding
Residues (chain): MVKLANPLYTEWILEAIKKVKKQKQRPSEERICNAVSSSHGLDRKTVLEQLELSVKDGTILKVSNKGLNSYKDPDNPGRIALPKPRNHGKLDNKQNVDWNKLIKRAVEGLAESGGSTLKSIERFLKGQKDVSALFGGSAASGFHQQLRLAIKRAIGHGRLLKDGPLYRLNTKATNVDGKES
Oligonucleotide	E-score
GGAGGAAA	0.000945
AGTCGCGA	0.238
CGCATCCC	0.116
AACGAGAG	-0.114
CTGGACAG	-0.115
CATGACAA	-0.175
ATTCAGAC	-0.0916
CCGATGCC	0.124
AGATGCGA	0.084
AACAAATC	-0.0663
GTCATAGA	0.015
AGTGCCTG	-0.214
CAGCATTC	-0.0803
GCTAAAAA	0.00668
AGCACAGA	-0.142
AAGTCCTA	0.0179
GTTGAAAC	0.0492
AATCTCAG	-0.0542
GATGTTCA	-0.0155

Sample 5
Target: Myc proto-oncogene protein, bHLH-zipper, MAX partner unstated (MYC, Homo sapiens, UniProt P01106, residues 368-449)
Chain of UniProt P01106 (368-449, looked up): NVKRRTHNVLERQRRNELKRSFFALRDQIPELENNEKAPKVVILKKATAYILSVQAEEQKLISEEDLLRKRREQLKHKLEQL
Technique: protein-binding microarray
Molecule type: double-stranded DNA, one strand shown
Matrix: in vitro
Concentration: not given
Notes: k-mer, scored over probes, only values ≥0.25
Direction: higher = stronger binding
Oligonucleotide	E-score
GCGTGTAC	0.403
TGCGCACA	0.323
CATGTACA	0.307
ACGCCCCT	0.261
AATCCACG	0.289
AGCGTGCG	0.393
AACGAGGA	0.257
CACATGCA	0.432
AGTCCACG	0.387
ACCTCCAT	0.256
GAGGGGCA	0.284
CCCATGGC	0.309
ACATGTGA	0.443
ATGCTTTC	0.253
AACGTGAC	0.298
GCGAGGTA	0.314
CCACGACC	0.272
AGTCACAT	0.296
GCCGGACC	0.275
ATGCATGC	0.408
CATGTTCC	0.299
ACGCATGG	0.466
AGCCGCAT	0.265
CAAACGTG	0.331
ACCTCGCG	0.368

Repeated from above (sample 5):
Oligonucleotide	E-score
AACGTGAC	0.298
GCGAGGTA	0.314
CCACGACC	0.272
AGTCACAT	0.296
GCCGGACC	0.275
ATGCATGC	0.408
